Results pooled from the literature.
Compare with care: the assays were run in different laboratories. Values joined by “and” are separate records of one study, mostly repeats; a detail may differ. Numbers after ± are the reported error.
RIPK1: Receptor-interacting serine/threonine-protein kinase 1 (RIPK1, Homo sapiens, UniProt Q13546)
Bone morphogenetic protein 2: Bone morphogenetic protein 2 (Homo sapiens, UniProt P12643)
ABO G235S/G268A/L266M/R176G: Histo-blood group ABO system transferase (ABO, Homo sapiens, UniProt P16442, G235S/G268A/L266M/R176G)
ADORA1: Adenosine receptor A1 (ADORA1, Homo sapiens, UniProt P30542)

SMILES	target	assay	system	setting	measurement	value
C[C@H](NC(=O)[C@H](C)NC(=O)[C@H](Cc1ccc(O)cc1)NS(=O)(=O)c1cccc2c(N(C)C)cccc12)C(=O)N[C@@H](CCCNC(=N)N)C(=O)N[C@@H](CCCCN)C(=O)N[C@@H](Cc1ccccc1)C(=O)N[C@@H](C)C(=O)N[C@@H](CCCCN)C(=O)O	Rho guanine nucleotide exchange factor TIAM2, PDZ domain (Tiam2, Mus musculus, UniProt Q6ZPF3)	fluorescence anisotropy	–	25 °C, added: dansylated peptide 1 µM	Kd	> 250 µM
O=C(Cc1cccc(C(F)(F)F)c1)Nc1cc(Oc2cc3sc(NC(=O)C4CC4)nc3cc2Cl)ccc1F	RIPK1	binding, competition with immobilised ligand	–	–	Kd	0.036 µM
C=CC(=O)Oc1ccc(/C=C/C(=O)c2c(OC)cc3c(c2OC(=O)C=C)CCC(C)(C)O3)cc1	Diacylglycerol kinase zeta (DGKZ, Homo sapiens, UniProt Q13574)	binding, SPR	–	–	Kd	6.33 µM
CC(=O)N[C@@H]1[C@@H](O[C@@H]2O[C@H](C(=O)O)[C@@H](O[C@@H]3O[C@H](COS(=O)(=O)O)[C@@H](OS(=O)(=O)O)[C@H](O[C@@H]4O[C@H](C(=O)O)[C@@H](OS(=O)(=O)O)[C@H](OS(=O)(=O)O)[C@H]4OS(=O)(=O)O)[C@H]3NC(C)=O)[C@H](OS(=O)(=O)O)[C@H]2OS(=O)(=O)O)[C@H](OS(=O)(=O)O)[C@@H](COS(=O)(=O)O)O[C@H]1N=[N+]=[N-]	Bone morphogenetic protein 2	ligand displacement, FP	–	–	Kd	2.3 µM
C[n+]1ccc(/C=N/NC(=O)c2cncc(C(=O)N/N=C/c3cc[n+](C)c4ccccc34)n2)c2ccccc21	telomeric antiparallel G4 DNA	binding, native ESI-MS	100 mM trimethylammonium acetate	1 mM KCl	Kd	< 0.001 µM
OCc1c(Cl)ccc(Oc2ccc(Cl)cc2Cl)c1O	Enoyl-acyl carrier reductase, with NAD+ (ENR, Toxoplasma gondii, UniProt Q6UCJ9)	thermal shift	–	added: NAD+ 100 µM	Kd	0.21 ± 0.06 µM
Cc1cc(N2CC[C@@](C#N)(C3CC3)C2=O)cc(NC(=O)Cc2ccccc2)n1	Bifunctional glutamate/proline--tRNA ligase (EPRS1, Homo sapiens, UniProt P07814)	binding, MST	–	–	Kd	0.028 µM
Nc1ncnc2c1ncn2[C@@H]1O[C@H](CN(CCNc2ncnc3c2ncn3[C@@H]2O[C@H](CO)[C@@H](O)[C@H]2O)CC[C@H](N)C(=O)O)[C@@H](O)[C@H]1O	Ribosomal RNA large subunit methyltransferase J (rlmJ, Escherichia coli, UniProt P37634)	–	–	–	Kd	25 ± 3 µM
CCCCCCCCO[C@@H]1O[C@H](CO)[C@H](O)[C@H](O[C@H]2O[C@H](CO)[C@H](O)[C@H](O)[C@H]2O)[C@H]1O[C@@H]1O[C@@H](C)[C@@H](O)[C@@H](O)[C@@H]1O	ABO G235S/G268A/L266M/R176G	methyl-TROSY NMR titration lineshape analysis	–	apo enzyme	Kd	264 ± 4 µM
CC[C@H](C)[C@H](NC(=O)[C@@H](NC(=O)[C@H](CS)NC(=O)[C@H](CCSC)NC(C)=O)[C@@H](C)O)C(=O)N[C@@H](CC(=O)O)C(=O)N[C@@H](Cc1ccc(F)cc1)C(=O)N[C@@H](CC(=O)O)C(=O)N[C@@H](CCC(=O)O)C(=O)N[C@@H](Cc1ccc(O)cc1)C(=O)N[C@@H](CCCNC(=N)N)C(=O)N[C@@H](Cc1ccc(F)cc1)C(=O)N[C@@H](CCCNC(=N)N)C(=O)N[C@@H](CCCCN)C(=O)N[C@H](C(N)=O)[C@@H](C)O	Breast cancer type 1 susceptibility protein, tandem BRCT domains (BRCA1, Homo sapiens, UniProt P38398)	binding, ITC	thioredoxin-BRCT fusion	pH 7.4, 25 °C	Kd	3.7 µM
CC(=O)N[C@H]1[C@@H](OP(=O)(O)OP(=O)(O)OC[C@H]2O[C@@H](n3ccc(=O)[nH]c3=O)[C@H](O)[C@@H]2O)O[C@H](CO)[C@H](O)[C@@H]1O	ABO G235S/G268A/L266M/R176G	binding, NMR	–	–	Kd	3370 µM
CCCn1c(=O)c2[nH]c(-c3ccc(OCC(=O)NCCNC(=O)CCCCCNS(=O)(=O)c4ccc(C5=c6cc7c8c(c6Oc6c5cc5c9c6CCCN9CCC5)CCC[N+]=8CCC7)c(S(=O)(=O)[O-])c4)cc3)nc2n(CCC)c1=O	ADORA1	CRE reporter gene, antagonist	CHO-A1	Gs response, PTX-pretreated overnight, added: NECA and forskolin	Kd	0.49 µM
Cc1cc(N2CCC(CO)(C3CC3)C2=O)cc(C(=O)NCc2cc(F)cc(-c3cnn(C)c3)c2)n1 (stereo not drawn)	Bifunctional glutamate/proline--tRNA ligase, prolyl-tRNA synthetase domain (EPRS1, Homo sapiens, UniProt P07814)	binding, microscale thermophoresis	–	–	Kd	2.58 µM and 1.99 µM
CN(C)c1cc2ccccc2c(N)n1	CUGBP Elav-like family member 1, RRM1/2 domains (CELF1, Homo sapiens, UniProt Q92879)	isothermal titration calorimetry	–	25 °C	Kd	9.6 ± 1.3 µM
O=C(Cc1cccc(C(F)(F)F)c1)Nc1cc(Oc2ccc3nc(NC(=O)C4CC4)sc3c2CO)ccc1F	RIPK1	binding, competition with immobilised ligand	–	–	Kd	0.012 µM
CC(C)C[C@H](NC(=O)[C@H](CC(C)C)NC(=O)CNC(=O)[C@@H](NC(=O)[C@H](CC(=O)O)NC(=O)[C@H](CC(=O)O)NC(=O)[C@H](Cc1ccc(O)cc1)NC(=O)[C@H](Cc1ccc(O)cc1)NC(=O)[C@H](CO)NC(=O)[C@@H](NC(=O)[C@@H](NC(=O)CNC(=O)[C@H](Cc1ccccc1)NC(=O)[C@@H](NC(=O)[C@H](CCC(=O)O)NC(=O)[C@@H](N)C(C)C)[C@@H](C)O)[C@@H](C)O)[C@@H](C)O)C(C)C)C(=O)O	Eotaxin (CCL11, Homo sapiens, UniProt P51671)	binding, NMR	–	pH 6.5	Kd	140 µM
O=C(CCCCCCNc1ccc(C(=O)Nc2ccc(Cl)c(NC(=O)c3cccc(Cl)c3)c2)cn1)NO	Protein smoothened (SMO, Homo sapiens, UniProt Q99835)	cell-free assay, flow cytometry	–	–	Kd	0.0796 µM

SMILES	target	assay	system	setting	measurement	value
CC(=O)N[C@@H]1[C@@H](O[C@@H]2O[C@H](C(=O)O)[C@@H](O[C@@H]3O[C@H](CO)[C@@H](OS(=O)(=O)O)[C@H](O[C@@H]4O[C@H](C(=O)O)[C@@H](OS(=O)(=O)O)[C@H](OS(=O)(=O)O)[C@H]4OS(=O)(=O)O)[C@H]3NC(C)=O)[C@H](OS(=O)(=O)O)[C@H]2OS(=O)(=O)O)[C@H](OS(=O)(=O)O)[C@@H](CO)O[C@H]1N=[N+]=[N-]	Bone morphogenetic protein 2	ligand displacement, FP	–	–	Kd	23 µM
CCCn1c(=O)c2[nH]c(-c3ccc(OCC(=O)NCCNC(=O)CCCCCNC(=O)CCCCCNS(=O)(=O)c4cccc5c(N(C)C)cccc45)cc3)nc2n(CCC)c1=O	ADORA1	CRE reporter gene, antagonist, parallel shift	CHO-A1	Gi-mediated inhibition, added: NECA and forskolin	Kd	0.0724 µM
CCNC(=O)[C@H]1O[C@@H](n2cnc3c(Nc4ccc(I)cc4)ncnc32)[C@H](O)[C@@H]1O	Adenosine receptor A3 (ADORA3, Homo sapiens, UniProt P0DMS8)	kinetic radioligand binding	–	no GTP, added: [3H]PSB-11	Kd	0.00076 ± 0.00013 µM
CCc1nc2cc3ccccc3cc2cc1C(=O)N1CCC[C@H]1C(=O)N[C@@H](CCC/C=C/CCC[C@H](NC(=O)[C@@H]1CCCN1C(=O)c1cc2cc3ccccc3cc2nc1CC)C(=O)N[C@@H](CCCCN)C(=O)NCCCN)C(=O)N[C@@H](CCCCN)C(=O)NCCCN	(CCUG)10 RNA	fluorescence titration	–	–	Kd	0.0736 ± 0.0008 µM
CCCCCCCCO[C@@H]1O[C@H](CO)[C@H](O)[C@H](O)[C@H]1O[C@@H]1O[C@@H](C)[C@@H](O)[C@@H](O)[C@@H]1O	ABO G235S/G268A/L266M/R176G	methyl-TROSY NMR titration lineshape analysis	–	apo enzyme	Kd	164 ± 4 µM
CC(=O)N[C@H]1[C@H](O[C@H]2[C@H](OS(=O)(=O)O)[C@@H](OS(=O)(=O)O)[C@H](O[C@H]3[C@H](OS(=O)(=O)O)[C@@H](COS(=O)(=O)O)OC[C@@H]3NC(C)=O)O[C@@H]2C(=O)O)O[C@H](COS(=O)(=O)O)[C@@H](OS(=O)(=O)O)[C@@H]1O[C@@H]1O[C@H](C(=O)O)[C@@H](OS(=O)(=O)O)[C@H](OS(=O)(=O)O)[C@H]1OS(=O)(=O)O	Metalloproteinase inhibitor 3 (Homo sapiens, UniProt P35625)	ligand displacement, FP	–	–	Kd	0.44 µM
OC(Cc1cc(-c2ccc(C(O)C(F)(F)F)s2)sc1-c1ccc(-c2sc(-c3ccc(C(O)C(F)(F)F)s3)cc2CC(O)C(F)(F)F)s1)C(F)(F)F (stereo not drawn)	Microtubule-associated protein tau, 0N4R isoform, aggregated (MAPT, Homo sapiens, UniProt P10636)	soluble tau aggregate binding, fluorescence	–	20% sucrose gradient fraction	Kd	0.066 µM
Cc1ccc(Oc2nc3cc(-c4ccc5c(ccn5C)c4)c(Cl)cc3[nH]2)cc1C(=O)O	PRKAA1/PRKAB1, phosphorylated; with gamma1 (Homo sapiens, UniProt Q13131+Q9Y478)	binding, circular dichroism titration	–	20 °C, α1β1γ1 complex	Kd	0.078 µM
CC(=O)N[C@@H]1[C@@H](O[C@@H]2O[C@H](C(=O)O)[C@@H](O[C@@H]3O[C@H](CO)[C@@H](O)[C@H](O[C@@H]4O[C@H](C(=O)O)[C@@H](O)[C@H](O)[C@H]4O)[C@H]3NC(C)=O)[C@H](O)[C@H]2O)[C@H](O)[C@@H](CO)O[C@H]1N=[N+]=[N-]	Bone morphogenetic protein 2	fluorescence polarization competition	–	–	Kd	no binding
CC(C)C[C@H](NC(=O)[C@H](CCC(=O)O)NC(=O)[C@H](CC(=O)O)NC(=O)[C@H](CC(C)C)NC(=O)[C@H](CC(C)C)NC(=O)[C@H](CCCNC(=N)N)NC(=O)[C@H](CC(=O)O)NC(=O)[C@H](CC(C)C)NC(=O)[C@H](CCC(=O)O)NC(=O)[C@H](CO)NC(=O)[C@H](CC(C)C)NC(=O)[C@H](CC(N)=O)NC(=O)CCCCCNC(=O)c1ccc2c(c1)C(=O)OC21c2ccc(N(C)C)cc2Oc2cc(N(C)C)ccc21)C(=O)N[C@@H](CC(N)=O)C(=O)O	Focal adhesion kinase 1, FAT domain (PTK2, Homo sapiens, UniProt Q05397, I936E/L994E)	binding, fluorescence polarization saturation	–	two-site mutant I936E+L994E	Kd	no binding
CNc1ccccc1C(=O)O[C@H]1C[C@H](n2cnc3c(N)ncnc32)O[C@@H]1COP(=O)(O)OP(=O)(O)O	Unconventional myosin-Va (Gallus gallus, UniProt Q02440, D297C/G292C/I296C/S293C/V295G)	stopped-flow FRET	–	4 °C, added: EDTA 4 mM	Kd	6.75 ± 0.54 µM
O=C(Cc1cccc(C(F)(F)F)c1)Nc1cc(Oc2c(F)cc3nc(NC(=O)C4CC4)sc3c2Cl)ccc1F	RIPK1	binding, competition with immobilised ligand	–	–	Kd	0.037 µM
NCc1cc(C(=O)NCCN2CCN(CCCCC3CCN(CC(=O)N4c5ccccc5NC(=O)c5ccccc54)CC3)CC2)cc(C(=O)NCCN2CCN(CCOC(=O)C3c4ccccc4Oc4ccccc43)CC2)c1	Muscarinic acetylcholine receptor M3 (CHRM3, Homo sapiens, UniProt P20309)	ligand displacement, radioligand	–	–	Ki	0.055 µM
CCCn1c(=O)c2[nH]c(-c3ccc(OCC(=O)NCCNC(=O)CCCCCNC(=O)COc4ccc(/C=C/C5=[N+]6C(=Cc7ccc(-c8cccs8)n7[B-]6(F)F)C=C5)cc4)cc3)nc2n(CCC)c1=O	ADORA1	CRE reporter gene, antagonist	CHO-A1	Gs-mediated enhancement, added: NECA and forskolin	Kd	0.115 µM
COc1ccc(-c2coc3cc(O[C@@H]4O[C@H](CO)[C@@H](O)[C@H](O)[C@H]4O)ccc3c2=O)cc1O	TAS1R2 (Homo sapiens, UniProt Q8TE23)	binding	0.5% DMSO	–	Kd	0.000792 µM
C=C1C(=O)O[C@@H]2/C=C(\C)[C@@H](OC(C)=O)C/C=C(\COC(C)=O)C[C@@H](OC(=O)/C(C)=C/CO)[C@@H]12	Ubiquitin carboxyl-terminal hydrolase 7 (USP7, Homo sapiens, UniProt Q93009)	binding, SPR	–	–	Kd	6.85 µM
